Assay results from different studies.
Numbered parts are unrelated; each lists some results of a single study.

Series 1
Target: Histone acetyltransferase KAT6A, winged helix 1, GST fusion (KAT6A, Homo sapiens, UniProt Q92794, residues 1-85)
Method: protein binding microarray
Form: double-stranded DNA, one strand shown
Medium: in vitro
Tested at: not given
Setting: 8-mer, flanks averaged, mean of 2 arrays, mostly near background
Baseline: not given
Direction: higher = stronger binding
Construct (chain): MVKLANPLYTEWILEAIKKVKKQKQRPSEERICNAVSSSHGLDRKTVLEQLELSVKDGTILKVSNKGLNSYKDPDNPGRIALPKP
For `CGAAAAAA`, the E-score was -0.0969.
With `TAACGCCA` the E-score was 0.062.
For `ATGGTGTG`, the E-score was -0.331.
`CATGGGCA` has an E-score of -0.107.
With `AGTCTATC` the E-score was -0.134.
The E-score of `CATGACGC` is reported as 0.256.
With `ACCAGGCA` the E-score was -0.316.
`GTCCCCAA` gave an E-score of -0.148.
`ATTTAGAC` gave an E-score of -0.21.
`ACGTAGTA` gave an E-score of 0.0357.
The E-score of `AGCCGTCA` is reported as 0.299.
`ACTCAGCA` has an E-score of -0.136.
`CAATATTG` has an E-score of -0.268.
The E-score of `AGTACGGC` is reported as 0.398.
For `ATATGGGG`, the E-score was -0.0699.
The E-score of `GGTAAAAC` is reported as -0.153.
`TAGATTGA` has an E-score of 0.0643.
The E-score of `CCTGTCAG` is reported as -0.123.
The E-score of `GGCATCTA` is reported as -0.00384.

Series 2
Target: Sal-like protein 4, full length isoform A (SALL4, Homo sapiens, UniProt Q9UJQ4, residues 1-1053)
UniProt Q9UJQ4, sequence (whole entry, looked up): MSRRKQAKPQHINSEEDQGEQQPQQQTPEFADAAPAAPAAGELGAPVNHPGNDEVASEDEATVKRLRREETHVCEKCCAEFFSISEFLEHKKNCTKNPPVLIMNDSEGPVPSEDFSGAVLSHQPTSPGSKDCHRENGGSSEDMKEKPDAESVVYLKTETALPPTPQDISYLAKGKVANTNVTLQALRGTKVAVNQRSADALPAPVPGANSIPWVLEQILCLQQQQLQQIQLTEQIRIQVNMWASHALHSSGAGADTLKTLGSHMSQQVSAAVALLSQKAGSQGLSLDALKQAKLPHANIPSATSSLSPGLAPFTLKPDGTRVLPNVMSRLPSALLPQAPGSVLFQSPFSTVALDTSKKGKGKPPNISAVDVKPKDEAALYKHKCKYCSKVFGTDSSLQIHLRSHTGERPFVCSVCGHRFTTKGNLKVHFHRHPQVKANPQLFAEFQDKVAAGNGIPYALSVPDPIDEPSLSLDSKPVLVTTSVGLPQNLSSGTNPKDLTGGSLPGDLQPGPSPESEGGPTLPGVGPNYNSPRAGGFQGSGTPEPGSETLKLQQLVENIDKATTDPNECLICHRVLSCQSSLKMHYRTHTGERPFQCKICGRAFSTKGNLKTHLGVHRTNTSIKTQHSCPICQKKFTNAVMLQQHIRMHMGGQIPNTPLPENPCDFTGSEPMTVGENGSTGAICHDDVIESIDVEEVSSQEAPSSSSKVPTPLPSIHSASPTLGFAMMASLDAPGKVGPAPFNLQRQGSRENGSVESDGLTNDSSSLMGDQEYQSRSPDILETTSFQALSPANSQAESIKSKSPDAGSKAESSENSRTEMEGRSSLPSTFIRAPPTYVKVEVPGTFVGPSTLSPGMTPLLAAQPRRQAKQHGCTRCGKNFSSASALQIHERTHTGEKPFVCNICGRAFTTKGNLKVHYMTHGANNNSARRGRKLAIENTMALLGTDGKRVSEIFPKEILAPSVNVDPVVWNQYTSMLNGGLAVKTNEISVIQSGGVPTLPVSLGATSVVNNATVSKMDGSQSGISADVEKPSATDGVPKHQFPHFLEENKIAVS
Method: universal PBM
Form: double-stranded DNA, one strand shown
Medium: in vitro
Tested at: 600 nM
Setting: 8-mer, flanks averaged, mean of replicates
Direction: higher = stronger binding
For `ACGGGTTC`, the E-score was -0.249.
With `AATTCACA` the E-score was 0.281.
The E-score of `GAGATCGC` is reported as -0.189.
`AATTACTA` gave an E-score of 0.237.
The E-score of `TAGCGTAA` is reported as 0.121.
With `CCTGGAGA` the E-score was -0.177.
`CGCATGAA` has an E-score of -0.0309.
For `AACCGTCC`, the E-score was -0.0873.
The E-score of `AAGAGCCC` is reported as -0.252.
With `TCAGGACA` the E-score was -0.03.
For `GAGGTCGC`, the E-score was -0.289.
For `CCCCCTCA`, the E-score was -0.311.
`AGGGACCG` has an E-score of -0.308.
With `ACATCTTC` the E-score was 0.0675.
The E-score of `AGTTCCAA` is reported as 0.119.
With `AAAGAGAT` the E-score was 0.057.
`CAGAGGAC` has an E-score of -0.0517.
`ACGTGCGA` has an E-score of -0.181.
For `TACGGACA`, the E-score was 0.0155.
`CAGCAAAG` has an E-score of 0.0295.
`GTCGGACA` has an E-score of -0.124.
With `CACGCCCA` the E-score was -0.269.
For `AGTAGTGC`, the E-score was -0.158.

Series 3
Target: Prothrombin, mature alpha-thrombin (F2, Homo sapiens, UniProt P00734)
Method: aptamer microarray, sandwich
Form: DNA with 2'F-ANA
Medium: in vitro
Tested at: 200 nM
Setting: whole 15-mer aptamer, many near background
Added: Cy3 exosite-II aptamer, 400 nM
Direction: higher = stronger binding
Strand: GGTTGGTGTGGTTGG
`2'F-ANA at 2 4 7 8 10 11 13`: “mean fluorescence intensity” 71.3 a.u.
`2'F-ANA at 2 3 4 6 8 10 11 13` — result for “mean fluorescence intensity”: 171 a.u.
For `2'F-ANA at 2 3 4 5 6 9 10 11 12 13 15`, “mean fluorescence intensity” read 52.5 a.u.
`2'F-ANA at 1 2 4 8 11 12 13 15`: “mean fluorescence intensity” 195 a.u.
Under “mean fluorescence intensity”, `2'F-ANA at 3 4 8 13 14 15` is recorded as 341 a.u.
`2'F-ANA at 6 7 9 14 15` — result for “mean fluorescence intensity”: 180 a.u.
Under “mean fluorescence intensity”, `2'F-ANA at 2 3 4 5 7 8 9 11 14 15` is recorded as 88.6 a.u.
Under “mean fluorescence intensity”, `2'F-ANA at 1 2 3 11 13 14` is recorded as 67.6 a.u.
`2'F-ANA at 2 5 6 11 12` — result for “mean fluorescence intensity”: 125 a.u.
For `2'F-ANA at 1 2 3 5 6 7 8 12 13 14 15`, “mean fluorescence intensity” read 51.2 a.u.
For `2'F-ANA at 1 4 7 8`, “mean fluorescence intensity” read 198 a.u.
For `2'F-ANA at 4 5 6 7 8 10 11 12 13 15`, “mean fluorescence intensity” read 96.3 a.u.
`2'F-ANA at 1 2 3 5 12 13 15`: “mean fluorescence intensity” 82.1 a.u.
`2'F-ANA at 1 5 7 9 12 13`: “mean fluorescence intensity” 71.2 a.u.
`2'F-ANA at 1 2 10 12 13 14` — result for “mean fluorescence intensity”: 51.7 a.u.
Under “mean fluorescence intensity”, `2'F-ANA at 2 4 5 7 14 15` is recorded as 45.4 a.u.
For `2'F-ANA at 4 9 10 12 13`, “mean fluorescence intensity” read 108 a.u.
`2'F-ANA at 1 3 4 5 6 8 9 11 12 15` — result for “mean fluorescence intensity”: 90.6 a.u.
`2'F-ANA at 1 2 3 5 6 10 11 13`: “mean fluorescence intensity” 110 a.u.
For `2'F-ANA at 1 2 4 6 10 12 14 15`, “mean fluorescence intensity” read 51.2 a.u.

Series 4
Target: RNA binding protein fox-1 homolog 2, RRM domain, GST-SBP tag (RBFOX2, Homo sapiens, UniProt O43251-10, residues 100-194)
Method: RNA Bind-n-Seq
Form: RNA
Medium: in vitro
Tested at: 365 nM
Setting: natural RNA segment, single round, ends assumed
Baseline: no-protein control
Direction: higher = stronger binding
Residues (chain): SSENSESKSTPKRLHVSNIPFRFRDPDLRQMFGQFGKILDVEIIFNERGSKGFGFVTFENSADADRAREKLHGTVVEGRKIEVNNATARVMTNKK
For `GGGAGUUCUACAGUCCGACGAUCAAGCAAGCGUUGGUCAGUGUUGUGUCCCAGUAGCUGGGAAGGGCACGGCUUUGCCCUGAUCUGUUCUGCAGGGCUAGGAGUGAGCCUGCCACUAACCCCUCUCCACCACUUGGAAUUCUCGGGUGCCAA`, “RBNS enrichment (R)” read 0.288.
`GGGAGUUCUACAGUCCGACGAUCCGCCAAGCUUAAUGCAAGAAUAUCUGACUGUUUAGAAGAAAGAUAUUGCCACAAUCUCUGGAUGGUUUUCCAGGGUUGUGUUAUUACUGAGCUUCAUCUUUCCAGAAUGAUGGAAUUCUCGGGUGCCAA`: “RBNS enrichment (R)” 0.373.
Under “RBNS enrichment (R)”, `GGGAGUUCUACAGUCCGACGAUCGGGUCCUCAAAGAAGUAAGGCCACAGUAAUCAAGCAAGGGCCUUUGGUUUUUUCCAGAGUUAGAUCCUCUCAGAACAGAGUCUGGGAGAACUCCAAUGCUGAAUGGAGAAUGGAAUUCUCGGGUGCCAA` is recorded as 3.91.
`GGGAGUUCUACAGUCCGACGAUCGCUUAGAAAAGGCGUAAGGGAACUCAUAAAGGCUAGCAGCAUGCGGUAUUUUAACUUUCUGCCUCGGCCUCUGUGGAUGCAGAAAUCUGCCCUACAAAAUGCUCUUCAUUUGGAAUUCUCGGGUGCCAA`: “RBNS enrichment (R)” 1.04.
For `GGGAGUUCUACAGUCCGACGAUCUAUUCUGCAAACUUGGUAGGCUGUUGGAUGUUAUAUUGCCCAUGUGCUUUACAGUGGGCAAUGUGAGAUGUCUCAGAAUGAAACGGUGCAUCUUUCAGGGCAGAAGAGCAUGGAAUUCUCGGGUGCCAA`, “RBNS enrichment (R)” read 5.45.
`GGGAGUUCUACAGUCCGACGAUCGGGGCUUUUGUACCUUGUUGGAGAUGCCACCUCAGAAGUUCACACUGUGCAGGAAAAAGGUUUUAUUCUCUCCUGGCAUACAUUAGAAUGUCAGAUGCUUGCAUCCAUGUUGGAAUUCUCGGGUGCCAA` — result for “RBNS enrichment (R)”: 0.559.
`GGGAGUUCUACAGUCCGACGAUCUUUUUUUAAUGAUAACUUCUUUUCUGUUUAUUGUAAAACUAAGUUAAAAAUAAAAGGUUAAUGAGAAUGAUAUGGCUUUUAUUACUUGUUACUAUUAGCCCAUUGAUUAGUGGAAUUCUCGGGUGCCAA` — result for “RBNS enrichment (R)”: 0.515.
`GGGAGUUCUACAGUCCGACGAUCGAUCAACUGUGUCUUAAGGCUCUCCAGCCUAUGCAUACUGUAUCCUGCUUCAGACUUAGGUACAAUUGCUCCCCUUUUUAUAUAUAGACACACACAGGACACAUAUAUUAUGGAAUUCUCGGGUGCCAA`: “RBNS enrichment (R)” 0.379.
Under “RBNS enrichment (R)”, `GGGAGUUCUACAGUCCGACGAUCCAUUUUAGAUUUUAGGUGACUCAUAAUUCCCAUUCACUUAGCCUAUCAGAAAAGUCAUUGGCAGACAUAUAUGUCCUUGAACCUUUUUUAUUUGUGUGGAUUCUGCUCAUUGGAAUUCUCGGGUGCCAA` is recorded as 0.372.
Under “RBNS enrichment (R)”, `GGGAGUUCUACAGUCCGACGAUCAGUUUGAUUUUUCUUUCCAUAUUUGAAUUAAUUUUUUCUGUUUGACUGGAAGGGGUUUUUGUAUAACUAAAACCUCAGCGCAUAAAGGAGAUUUAAAAGGAGCACAUGAUUGGAAUUCUCGGGUGCCAA` is recorded as 0.494.
`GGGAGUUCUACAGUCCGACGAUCGAAACAGUUCGACUUCGGUUACUGCCUUCUCCCUUGAAAUCCUUGCUGCGUGCCCACCAGGAUUUCCUGUGAGGGCCCAGGAAUGAGCAAGGCAUGGUCUGCCACCAGCUUGGAAUUCUCGGGUGCCAA` — result for “RBNS enrichment (R)”: 0.903.
For `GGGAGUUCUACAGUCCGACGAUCUUAUUUAUAUCAUGUAUCUCUAAGGACCUAAAAGCACUUUAUGUAGUUUUUAAUUAAUCUUAAGAUCUGGUUACGGUAACUAAAAAAGCCUGUCUGCCAAAUCCAGUGGAUGGAAUUCUCGGGUGCCAA`, “RBNS enrichment (R)” read 0.29.

Some of these lines once more (series 1):
The E-score of `CATGACGC` is reported as 0.256.
With `ACCAGGCA` the E-score was -0.316.
`GTCCCCAA` gave an E-score of -0.148.
`ATTTAGAC` gave an E-score of -0.21.
`ACGTAGTA` gave an E-score of 0.0357.
The E-score of `AGCCGTCA` is reported as 0.299.
`ACTCAGCA` has an E-score of -0.136.
`CAATATTG` has an E-score of -0.268.
The E-score of `AGTACGGC` is reported as 0.398.
